Results gathered from unrelated publications.
Numbered parts are unrelated; each lists some results of a single study.
Sequence of UniProt P16234 (whole entry, looked up): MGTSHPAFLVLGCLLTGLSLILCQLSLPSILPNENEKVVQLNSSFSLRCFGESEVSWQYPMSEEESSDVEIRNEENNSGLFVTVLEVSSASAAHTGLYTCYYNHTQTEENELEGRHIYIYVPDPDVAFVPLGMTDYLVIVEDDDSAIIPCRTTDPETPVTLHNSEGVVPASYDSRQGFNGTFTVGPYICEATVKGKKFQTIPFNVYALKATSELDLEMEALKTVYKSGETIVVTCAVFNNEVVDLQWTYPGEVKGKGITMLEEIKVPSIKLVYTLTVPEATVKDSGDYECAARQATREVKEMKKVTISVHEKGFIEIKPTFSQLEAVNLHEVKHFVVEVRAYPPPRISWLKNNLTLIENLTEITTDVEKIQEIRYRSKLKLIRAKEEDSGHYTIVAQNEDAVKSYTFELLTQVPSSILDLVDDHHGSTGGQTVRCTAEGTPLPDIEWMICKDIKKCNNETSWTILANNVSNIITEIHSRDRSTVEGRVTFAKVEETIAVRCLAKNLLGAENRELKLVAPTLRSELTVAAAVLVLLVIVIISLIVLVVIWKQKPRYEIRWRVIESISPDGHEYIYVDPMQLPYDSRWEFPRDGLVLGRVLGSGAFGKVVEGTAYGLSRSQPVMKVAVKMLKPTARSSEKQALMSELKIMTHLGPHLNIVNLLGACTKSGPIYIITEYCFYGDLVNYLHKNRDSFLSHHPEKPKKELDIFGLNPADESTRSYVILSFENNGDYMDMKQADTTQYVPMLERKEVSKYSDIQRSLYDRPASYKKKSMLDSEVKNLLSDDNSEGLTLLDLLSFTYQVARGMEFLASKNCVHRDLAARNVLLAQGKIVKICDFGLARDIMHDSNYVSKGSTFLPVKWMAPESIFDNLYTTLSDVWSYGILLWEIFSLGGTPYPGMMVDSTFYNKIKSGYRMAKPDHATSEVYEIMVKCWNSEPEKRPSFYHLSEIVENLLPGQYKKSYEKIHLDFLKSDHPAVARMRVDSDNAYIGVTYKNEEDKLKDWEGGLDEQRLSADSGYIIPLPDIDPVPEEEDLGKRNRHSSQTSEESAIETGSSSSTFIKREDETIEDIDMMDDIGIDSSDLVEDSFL
Sequence of UniProt Q9BX84 (whole entry, looked up): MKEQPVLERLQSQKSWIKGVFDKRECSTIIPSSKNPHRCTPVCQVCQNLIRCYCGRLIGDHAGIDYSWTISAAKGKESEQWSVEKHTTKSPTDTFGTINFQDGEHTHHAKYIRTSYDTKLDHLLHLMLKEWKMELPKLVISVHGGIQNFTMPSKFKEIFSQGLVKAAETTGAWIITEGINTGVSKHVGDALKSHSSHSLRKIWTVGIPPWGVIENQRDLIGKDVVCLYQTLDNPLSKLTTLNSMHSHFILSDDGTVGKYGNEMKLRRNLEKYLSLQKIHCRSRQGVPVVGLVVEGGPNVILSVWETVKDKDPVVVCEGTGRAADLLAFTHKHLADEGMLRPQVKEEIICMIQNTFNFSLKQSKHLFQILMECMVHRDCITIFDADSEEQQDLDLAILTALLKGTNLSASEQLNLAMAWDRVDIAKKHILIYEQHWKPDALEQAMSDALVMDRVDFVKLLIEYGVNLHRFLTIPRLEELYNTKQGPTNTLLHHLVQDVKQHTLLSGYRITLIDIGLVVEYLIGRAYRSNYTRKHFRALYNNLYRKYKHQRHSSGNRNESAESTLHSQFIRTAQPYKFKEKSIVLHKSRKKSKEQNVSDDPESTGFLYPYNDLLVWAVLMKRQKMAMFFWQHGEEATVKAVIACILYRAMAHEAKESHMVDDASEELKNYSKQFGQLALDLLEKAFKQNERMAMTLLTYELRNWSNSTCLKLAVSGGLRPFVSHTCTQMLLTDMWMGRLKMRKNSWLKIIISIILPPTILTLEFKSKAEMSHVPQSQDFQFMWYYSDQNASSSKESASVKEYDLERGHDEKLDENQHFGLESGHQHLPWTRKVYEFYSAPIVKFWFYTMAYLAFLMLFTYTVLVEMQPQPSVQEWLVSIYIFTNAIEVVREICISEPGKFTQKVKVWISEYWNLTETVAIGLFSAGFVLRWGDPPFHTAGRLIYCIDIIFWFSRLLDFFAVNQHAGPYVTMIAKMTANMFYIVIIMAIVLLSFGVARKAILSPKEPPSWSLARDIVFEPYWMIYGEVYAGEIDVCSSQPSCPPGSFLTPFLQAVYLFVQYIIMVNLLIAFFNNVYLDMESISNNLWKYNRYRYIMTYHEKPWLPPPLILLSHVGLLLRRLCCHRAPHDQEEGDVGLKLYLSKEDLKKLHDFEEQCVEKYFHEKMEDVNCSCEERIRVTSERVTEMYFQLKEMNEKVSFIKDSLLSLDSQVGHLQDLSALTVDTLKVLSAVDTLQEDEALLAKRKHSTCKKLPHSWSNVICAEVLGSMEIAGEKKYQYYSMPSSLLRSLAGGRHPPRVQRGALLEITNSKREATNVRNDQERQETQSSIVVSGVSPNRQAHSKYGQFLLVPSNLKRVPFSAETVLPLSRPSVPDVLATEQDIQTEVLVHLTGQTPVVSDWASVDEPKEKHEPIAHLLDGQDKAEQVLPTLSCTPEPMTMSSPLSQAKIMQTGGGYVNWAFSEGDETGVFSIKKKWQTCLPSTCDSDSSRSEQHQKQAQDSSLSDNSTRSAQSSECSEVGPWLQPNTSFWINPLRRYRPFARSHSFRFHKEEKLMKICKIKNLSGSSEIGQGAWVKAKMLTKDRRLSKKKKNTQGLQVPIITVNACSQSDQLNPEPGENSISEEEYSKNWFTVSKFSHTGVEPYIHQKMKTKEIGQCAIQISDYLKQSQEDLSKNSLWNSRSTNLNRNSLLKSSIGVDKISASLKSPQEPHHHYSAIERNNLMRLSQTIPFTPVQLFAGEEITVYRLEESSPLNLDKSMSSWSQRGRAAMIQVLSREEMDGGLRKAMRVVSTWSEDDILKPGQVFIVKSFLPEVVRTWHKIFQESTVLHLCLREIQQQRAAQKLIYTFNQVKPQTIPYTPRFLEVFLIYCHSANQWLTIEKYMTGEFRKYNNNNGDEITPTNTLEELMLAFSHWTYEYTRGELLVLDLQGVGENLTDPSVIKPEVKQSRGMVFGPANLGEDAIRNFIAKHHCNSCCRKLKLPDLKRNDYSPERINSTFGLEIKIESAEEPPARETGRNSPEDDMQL
Sequence of UniProt P08588 (whole entry, looked up): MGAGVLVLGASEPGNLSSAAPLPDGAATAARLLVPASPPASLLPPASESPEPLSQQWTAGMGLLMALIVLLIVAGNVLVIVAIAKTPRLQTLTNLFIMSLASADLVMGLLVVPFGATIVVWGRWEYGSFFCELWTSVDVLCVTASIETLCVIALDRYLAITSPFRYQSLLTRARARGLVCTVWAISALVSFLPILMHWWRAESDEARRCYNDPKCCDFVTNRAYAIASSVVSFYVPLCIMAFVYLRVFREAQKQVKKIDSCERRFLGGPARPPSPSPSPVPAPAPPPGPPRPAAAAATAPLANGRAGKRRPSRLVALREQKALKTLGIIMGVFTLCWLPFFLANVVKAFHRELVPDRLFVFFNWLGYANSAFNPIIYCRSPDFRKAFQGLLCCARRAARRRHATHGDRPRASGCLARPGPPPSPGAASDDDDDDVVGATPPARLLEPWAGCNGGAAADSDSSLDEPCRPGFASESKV
Sequence of UniProt P22607 (whole entry, looked up): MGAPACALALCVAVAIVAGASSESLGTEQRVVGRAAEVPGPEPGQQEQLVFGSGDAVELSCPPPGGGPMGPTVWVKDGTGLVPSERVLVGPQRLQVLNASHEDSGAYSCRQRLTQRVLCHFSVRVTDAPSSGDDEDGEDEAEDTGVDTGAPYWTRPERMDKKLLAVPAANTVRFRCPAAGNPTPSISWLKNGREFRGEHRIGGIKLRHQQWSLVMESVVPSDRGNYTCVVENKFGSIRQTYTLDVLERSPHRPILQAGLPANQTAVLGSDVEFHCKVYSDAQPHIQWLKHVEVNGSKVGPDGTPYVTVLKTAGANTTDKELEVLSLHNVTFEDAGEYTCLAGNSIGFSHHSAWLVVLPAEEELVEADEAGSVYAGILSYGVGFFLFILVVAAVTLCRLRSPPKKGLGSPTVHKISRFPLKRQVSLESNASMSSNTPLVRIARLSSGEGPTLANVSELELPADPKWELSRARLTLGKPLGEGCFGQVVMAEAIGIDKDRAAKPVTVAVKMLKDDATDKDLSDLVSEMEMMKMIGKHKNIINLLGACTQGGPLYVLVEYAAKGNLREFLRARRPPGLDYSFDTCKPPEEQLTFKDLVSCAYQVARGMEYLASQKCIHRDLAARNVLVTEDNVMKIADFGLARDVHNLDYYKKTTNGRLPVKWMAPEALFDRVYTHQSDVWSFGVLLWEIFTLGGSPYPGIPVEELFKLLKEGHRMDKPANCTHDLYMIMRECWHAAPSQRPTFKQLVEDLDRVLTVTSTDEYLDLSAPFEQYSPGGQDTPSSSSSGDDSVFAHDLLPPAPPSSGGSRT

Sample 1
SMILES: CN(c1ccnc(CNc2nc(Nc3ccc4c(c3)CC(=O)N4)ncc2C(F)(F)F)n1)S(C)(=O)=O
Technique: competition with immobilised ligand
Tested at: 1 µM
target	effect on	remaining binding [%]
Dual specificity tyrosine-phosphorylation-regulated kinase 2 (DYRK2, Homo sapiens, UniProt Q92630)	cell-free assay	37
Transient receptor potential cation channel subfamily M member 6 (TRPM6, Homo sapiens, UniProt Q9BX84)	cell-free assay	86
Serine/threonine-protein kinase BRSK2 (BRSK2, Homo sapiens, UniProt Q8IWQ3)	cell-free assay	97
Receptor-type tyrosine-protein kinase FLT3 (FLT3, Homo sapiens, UniProt P36888, N841I)	binding	0
Mast/stem cell growth factor receptor Kit, autoinhibited (KIT, Homo sapiens, UniProt P10721)	cell-free assay	52
Mitogen-activated protein kinase kinase kinase 12 (MAP3K12, Homo sapiens, UniProt Q12852)	cell-free assay	48
Myosin light chain kinase (MYLK3, Homo sapiens, UniProt Q32MK0)	cell-free assay	100
Ribosomal protein S6 kinase alpha-6, N-terminal kinase domain (RPS6KA6, Homo sapiens, UniProt Q9UK32)	cell-free assay	4.6
5'-AMP-activated protein kinase catalytic subunit alpha-1 (PRKAA1, Homo sapiens, UniProt Q13131)	cell-free assay	80
Activin receptor type-1-like (ACVRL1, Homo sapiens, UniProt P37023)	cell-free assay	100
Fibroblast growth factor receptor 3 (FGFR3, Homo sapiens, UniProt P22607)	cell-free assay	71
Serine/threonine-protein kinase PLK4 (PLK4, Homo sapiens, UniProt O00444)	cell-free assay	50
Tyrosine-protein kinase ABL1, non-phosphorylated (ABL1, Homo sapiens, UniProt P00519, F317I)	binding	100
Platelet-derived growth factor receptor alpha (PDGFRA, Homo sapiens, UniProt P16234)	cell-free assay	58

Sample 2
Target: Interferon regulatory factor 7, full length, phosphomimetic (IRF7, Homo sapiens, UniProt Q92985, residues 1-503, S471D/S472D/S475D/S476D/S477D/S483D/S484D/S487D)
Sequence of UniProt Q92985 (whole entry, unmodified, looked up): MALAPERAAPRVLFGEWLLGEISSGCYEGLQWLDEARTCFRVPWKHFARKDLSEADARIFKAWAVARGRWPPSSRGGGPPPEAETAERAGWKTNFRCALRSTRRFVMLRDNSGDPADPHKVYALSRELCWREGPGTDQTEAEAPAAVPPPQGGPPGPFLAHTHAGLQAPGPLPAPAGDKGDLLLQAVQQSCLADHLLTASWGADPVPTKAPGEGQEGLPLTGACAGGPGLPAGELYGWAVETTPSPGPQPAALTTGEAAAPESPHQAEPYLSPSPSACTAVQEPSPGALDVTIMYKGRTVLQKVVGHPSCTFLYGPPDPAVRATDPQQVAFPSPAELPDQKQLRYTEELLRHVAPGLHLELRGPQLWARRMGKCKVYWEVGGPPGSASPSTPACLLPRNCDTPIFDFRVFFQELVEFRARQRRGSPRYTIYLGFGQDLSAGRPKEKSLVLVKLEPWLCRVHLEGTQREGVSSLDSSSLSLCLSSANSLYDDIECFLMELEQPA
Technique: protein-binding microarray
Molecule type: double-stranded DNA, one strand shown
Sample: in vitro
Tested at: 2200 nM top
Notes: 60-bp whole probe
With: salmon DNA 0.4 mg/ml
Relative to: random background probes
Direction: higher = stronger binding
Constant ends, left off below: GCCTAGCAC … GTCTTGATTCGCTTGACGCTGCTG
Sequence	fitted relative affinity [z-score]
TAAGGTATAAACTTGGGAAAGTGCTAG	-0.906
TTAGGACTAGGGTTTCGGTTAGTGCTA	2.51
GACGGACAGGACTATCGGGACGTGCTA	-0.994
GACGATCTCAGTTTCGATACGTGCTAG	4.9
GTCGGTTTCGGGTATCGGGACGTGCTA	7.32
TTAGGTTTCCGTATCCTTTAGTGCTAG	3.11
TCACCTTGAGGTTTTCTCACTGTGCTA	0.528
CTCTGGGGCTCCAGGGAGAAGTGCTAG	-1.66

Sample 3
Organism: Sarcocystis neurona
Effect on: parasite growth
Tested at: 10 µM
Time: 96 h
SMILES	inhibition [%]
Nc1nc(=O)c2nc(CNc3ccc(C(=O)N[C@@H](CCC(=O)O)C(=O)O)cc3)cnc2[nH]1	-17.5
COc1c(N2CCNC(C)C2)c(F)cc2c(=O)c(C(=O)O)cn(C3CC3)c12 (centres unmarked)	-5.6
CCN(CC)CC1CCCCN1CC(=O)N1c2ccccc2C(=O)Nc2cccnc21 (centres unmarked)	-11.6

Further values, each from its own experiment
SMILES	tested on	test	system	setting	how to read	measurement	result
CC(COc1ccccc1)NC(C)C(O)c1ccc(O)cc1 (centres unmarked)	mouse MPNST tumor cells	high-content immunofluorescence imaging, measured: nuclear SOX9	–	10 µM, 12 h, mean of 2 replicates	relative to: DMSO control, higher = more nuclear SOX9	nuclear SOX9 intensity	124 % of DMSO
CCC1CC(=O)c2c(Cl)cccc2N1S(=O)(=O)c1ccc2ccccc2c1 (centres unmarked)	–	–	mouse, microsomes or S9	2 µM, 0.5 h	–	remaining compound	2.03%
O=C1c2cnc(-c3cccc(O)c3)nc2OCCN1c1cccc(C(F)(F)F)c1	Beta-1 adrenergic receptor (ADRB1, Homo sapiens, UniProt P08588)	antagonist	–	–	–	IC50	≥ 100 µM
CCOC(=O)c1cc2ccc(O)cc2oc1=O	mouse MPNST tumor cells	high-content immunofluorescence imaging, measured: nuclear SOX9	–	10 µM, 12 h, mean of 2 replicates	relative to: DMSO control, higher = more nuclear SOX9	nuclear SOX9 intensity	94.1 % of DMSO

Repeated from above (sample 1):
target	effect on	remaining binding [%]
5'-AMP-activated protein kinase catalytic subunit alpha-1 (PRKAA1, Homo sapiens, UniProt Q13131)	cell-free assay	80
Platelet-derived growth factor receptor alpha (PDGFRA, Homo sapiens, UniProt P16234)	cell-free assay	58
Transient receptor potential cation channel subfamily M member 6 (TRPM6, Homo sapiens, UniProt Q9BX84)	cell-free assay	86
